Results gathered from unrelated publications.
Lines come from different studies, so protocols differ. Values joined by “and” are separate records of one study, mostly repeats; a detail may differ. ± gives the spread as reported.
ZAP70: Tyrosine-protein kinase ZAP-70 (ZAP70, Homo sapiens, UniProt P43403)
Sequence of UniProt P43403 (whole entry, looked up): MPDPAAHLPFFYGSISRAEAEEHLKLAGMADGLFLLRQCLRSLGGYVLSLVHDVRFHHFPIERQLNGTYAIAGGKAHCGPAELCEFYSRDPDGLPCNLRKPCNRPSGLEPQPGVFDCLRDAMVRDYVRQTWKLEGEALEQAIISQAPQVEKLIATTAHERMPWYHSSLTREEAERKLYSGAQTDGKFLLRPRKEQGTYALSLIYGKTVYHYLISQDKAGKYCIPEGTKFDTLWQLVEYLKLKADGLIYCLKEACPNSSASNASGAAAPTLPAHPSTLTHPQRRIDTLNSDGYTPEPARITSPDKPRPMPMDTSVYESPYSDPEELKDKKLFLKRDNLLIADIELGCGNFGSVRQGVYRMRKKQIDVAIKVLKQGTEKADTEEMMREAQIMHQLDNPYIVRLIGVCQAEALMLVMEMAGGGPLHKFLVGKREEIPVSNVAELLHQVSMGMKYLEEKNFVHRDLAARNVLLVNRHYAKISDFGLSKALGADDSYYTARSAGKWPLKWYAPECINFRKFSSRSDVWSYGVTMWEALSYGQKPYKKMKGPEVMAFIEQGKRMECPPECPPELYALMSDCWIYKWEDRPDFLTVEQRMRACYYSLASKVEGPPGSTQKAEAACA
TGFBR1: TGF-beta receptor type-1 (TGFBR1, Homo sapiens, UniProt P36897)
Sequence of UniProt P36897 (whole entry, looked up): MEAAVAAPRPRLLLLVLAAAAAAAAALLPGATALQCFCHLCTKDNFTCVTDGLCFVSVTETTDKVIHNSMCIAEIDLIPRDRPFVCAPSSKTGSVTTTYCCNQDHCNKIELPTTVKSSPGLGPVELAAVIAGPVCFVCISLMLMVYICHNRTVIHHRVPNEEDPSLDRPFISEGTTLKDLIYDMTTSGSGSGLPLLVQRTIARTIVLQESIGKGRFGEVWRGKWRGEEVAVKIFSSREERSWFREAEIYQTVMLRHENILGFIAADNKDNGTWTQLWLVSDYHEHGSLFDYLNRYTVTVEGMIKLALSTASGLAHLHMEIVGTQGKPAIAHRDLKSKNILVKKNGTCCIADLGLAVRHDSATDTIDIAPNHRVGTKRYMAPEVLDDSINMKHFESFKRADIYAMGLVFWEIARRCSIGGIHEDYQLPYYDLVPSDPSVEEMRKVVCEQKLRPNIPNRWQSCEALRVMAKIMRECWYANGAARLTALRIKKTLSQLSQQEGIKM
PKN3: Serine/threonine-protein kinase N3 (PKN3, Homo sapiens, UniProt Q6P5Z2)
Sequence of UniProt Q6P5Z2 (whole entry, looked up): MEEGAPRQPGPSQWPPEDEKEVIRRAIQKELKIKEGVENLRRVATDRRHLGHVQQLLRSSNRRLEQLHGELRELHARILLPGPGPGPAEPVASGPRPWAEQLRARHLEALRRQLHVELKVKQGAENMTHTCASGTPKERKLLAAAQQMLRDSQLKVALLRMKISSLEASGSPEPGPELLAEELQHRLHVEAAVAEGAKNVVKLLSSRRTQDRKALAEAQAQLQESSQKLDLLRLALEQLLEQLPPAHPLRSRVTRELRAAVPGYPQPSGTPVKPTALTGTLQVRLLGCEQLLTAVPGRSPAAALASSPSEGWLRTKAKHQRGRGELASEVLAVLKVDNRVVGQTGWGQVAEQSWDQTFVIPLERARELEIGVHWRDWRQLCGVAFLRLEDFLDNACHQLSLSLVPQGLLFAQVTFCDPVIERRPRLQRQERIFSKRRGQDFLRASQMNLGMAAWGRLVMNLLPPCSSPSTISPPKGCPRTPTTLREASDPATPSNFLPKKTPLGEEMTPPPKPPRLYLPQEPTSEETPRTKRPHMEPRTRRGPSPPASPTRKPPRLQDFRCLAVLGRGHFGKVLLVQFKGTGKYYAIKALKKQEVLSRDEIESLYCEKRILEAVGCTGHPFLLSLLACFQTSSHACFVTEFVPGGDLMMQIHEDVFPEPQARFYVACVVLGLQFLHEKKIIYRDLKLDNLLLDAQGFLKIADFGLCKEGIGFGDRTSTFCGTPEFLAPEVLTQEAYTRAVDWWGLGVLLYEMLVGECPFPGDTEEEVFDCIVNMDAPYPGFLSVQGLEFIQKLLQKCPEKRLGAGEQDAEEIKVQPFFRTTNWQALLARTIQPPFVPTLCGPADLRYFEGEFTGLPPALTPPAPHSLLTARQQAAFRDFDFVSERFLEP
MUSK: Muscle, skeletal receptor tyrosine-protein kinase (MUSK, Homo sapiens, UniProt O15146)
Sequence of UniProt P11678 (whole entry, looked up): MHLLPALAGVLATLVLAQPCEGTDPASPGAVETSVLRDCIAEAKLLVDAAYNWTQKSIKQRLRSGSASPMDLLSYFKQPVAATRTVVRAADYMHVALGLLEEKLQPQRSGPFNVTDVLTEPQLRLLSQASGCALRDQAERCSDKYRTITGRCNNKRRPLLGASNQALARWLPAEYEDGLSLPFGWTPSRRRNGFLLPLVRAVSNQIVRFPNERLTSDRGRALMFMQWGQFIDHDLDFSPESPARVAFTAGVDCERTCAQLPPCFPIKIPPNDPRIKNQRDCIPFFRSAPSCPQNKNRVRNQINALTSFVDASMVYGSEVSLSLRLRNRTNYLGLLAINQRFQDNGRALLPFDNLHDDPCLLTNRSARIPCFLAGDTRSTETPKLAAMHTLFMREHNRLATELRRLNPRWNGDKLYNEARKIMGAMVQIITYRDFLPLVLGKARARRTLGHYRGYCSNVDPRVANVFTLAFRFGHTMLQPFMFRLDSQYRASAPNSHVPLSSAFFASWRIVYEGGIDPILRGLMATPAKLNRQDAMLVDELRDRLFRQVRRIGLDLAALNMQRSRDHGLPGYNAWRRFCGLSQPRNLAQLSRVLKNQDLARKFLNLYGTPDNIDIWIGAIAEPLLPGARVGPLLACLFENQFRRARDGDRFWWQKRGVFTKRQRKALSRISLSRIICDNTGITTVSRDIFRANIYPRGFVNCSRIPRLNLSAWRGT
Sequence of UniProt O15146 (whole entry, looked up): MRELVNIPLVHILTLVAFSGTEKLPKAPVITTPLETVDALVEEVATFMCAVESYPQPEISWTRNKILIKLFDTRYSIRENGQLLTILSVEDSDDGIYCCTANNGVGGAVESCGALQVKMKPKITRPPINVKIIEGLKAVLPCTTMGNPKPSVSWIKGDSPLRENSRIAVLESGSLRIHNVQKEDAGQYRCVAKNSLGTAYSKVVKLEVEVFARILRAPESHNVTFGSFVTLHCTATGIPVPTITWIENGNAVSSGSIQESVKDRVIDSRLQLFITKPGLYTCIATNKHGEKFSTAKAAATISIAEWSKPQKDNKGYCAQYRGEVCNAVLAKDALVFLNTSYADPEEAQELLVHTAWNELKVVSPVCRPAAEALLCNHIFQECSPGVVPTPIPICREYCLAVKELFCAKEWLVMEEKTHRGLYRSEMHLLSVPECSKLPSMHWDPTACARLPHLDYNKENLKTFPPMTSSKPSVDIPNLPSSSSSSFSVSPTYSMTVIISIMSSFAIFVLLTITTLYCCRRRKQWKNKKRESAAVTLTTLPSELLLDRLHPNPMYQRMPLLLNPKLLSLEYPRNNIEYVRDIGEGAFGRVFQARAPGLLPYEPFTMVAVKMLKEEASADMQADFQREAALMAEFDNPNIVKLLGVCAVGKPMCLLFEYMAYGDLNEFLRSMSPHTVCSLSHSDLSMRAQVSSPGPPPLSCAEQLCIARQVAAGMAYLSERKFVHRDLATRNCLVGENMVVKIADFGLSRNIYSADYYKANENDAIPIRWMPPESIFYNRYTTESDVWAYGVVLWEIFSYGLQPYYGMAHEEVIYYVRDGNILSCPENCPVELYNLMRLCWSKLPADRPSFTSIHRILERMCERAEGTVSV
Sequence of UniProt O95747 (whole entry, looked up): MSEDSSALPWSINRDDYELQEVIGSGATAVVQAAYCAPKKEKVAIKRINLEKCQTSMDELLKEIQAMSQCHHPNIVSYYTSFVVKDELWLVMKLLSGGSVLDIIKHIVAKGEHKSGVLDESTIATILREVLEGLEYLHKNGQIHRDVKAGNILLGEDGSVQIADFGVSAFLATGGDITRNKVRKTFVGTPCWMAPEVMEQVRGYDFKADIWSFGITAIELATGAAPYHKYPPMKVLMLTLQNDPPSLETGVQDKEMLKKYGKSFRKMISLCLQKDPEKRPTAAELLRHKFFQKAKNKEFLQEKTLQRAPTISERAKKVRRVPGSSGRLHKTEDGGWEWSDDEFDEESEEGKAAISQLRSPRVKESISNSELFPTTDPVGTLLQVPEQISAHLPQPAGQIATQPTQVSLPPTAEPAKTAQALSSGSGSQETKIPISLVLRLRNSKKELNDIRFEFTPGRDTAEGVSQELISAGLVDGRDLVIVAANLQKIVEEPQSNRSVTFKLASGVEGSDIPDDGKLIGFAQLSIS
Sequence of UniProt O60331 (whole entry, looked up): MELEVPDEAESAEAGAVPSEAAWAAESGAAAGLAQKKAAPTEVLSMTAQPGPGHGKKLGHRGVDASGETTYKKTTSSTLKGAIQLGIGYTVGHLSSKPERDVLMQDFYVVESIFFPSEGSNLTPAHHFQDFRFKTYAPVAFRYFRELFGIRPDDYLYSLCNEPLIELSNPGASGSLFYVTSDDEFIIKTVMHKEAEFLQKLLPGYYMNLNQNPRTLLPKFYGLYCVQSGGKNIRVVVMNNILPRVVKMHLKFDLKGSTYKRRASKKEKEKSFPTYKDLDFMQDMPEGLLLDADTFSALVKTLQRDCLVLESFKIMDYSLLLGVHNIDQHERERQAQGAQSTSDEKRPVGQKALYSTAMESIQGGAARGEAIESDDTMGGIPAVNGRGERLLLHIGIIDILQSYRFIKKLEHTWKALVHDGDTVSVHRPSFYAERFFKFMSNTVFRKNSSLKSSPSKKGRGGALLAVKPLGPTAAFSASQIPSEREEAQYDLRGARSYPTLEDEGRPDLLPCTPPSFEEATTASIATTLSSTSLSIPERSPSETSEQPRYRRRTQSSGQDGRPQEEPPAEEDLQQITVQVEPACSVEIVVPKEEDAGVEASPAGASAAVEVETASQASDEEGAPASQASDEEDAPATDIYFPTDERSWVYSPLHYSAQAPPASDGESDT

SMILES	target or system	assay	setting	how to read	endpoint	result
Cc1cc(C)n(C)n1	THP-1	pyroptotic LDH release	2 µM, 40 min, with: LPS then nigericin	–	inhibition	14.7%
CC#CC(=O)N1CCC[C@H]1c1nc(-c2ccc(C(=O)Nc3ccccn3)cc2)c2c(N)nccn12	Tyrosine-protein kinase FRK (FRK, Homo sapiens, UniProt P42685)	kinase activity, inhibitor, HotSpot radiometric	100 nM, with: ATP 10 µM	–	remaining activity	101.3 ± 1%
COc1cc(Nc2ncc3c(n2)-c2ccc(Cl)cc2C(c2c(F)cccc2OC)=NC3)ccc1C(=O)O	ROCK1	kinase activity	1 µM	–	remaining activity	97%
C=CC(=O)N1CCCN(C(=O)c2cc(Sc3cnc(NC(=O)C4CC4)s3)c(C)cc2OC)C[C@H]1C	ZAP70	kinase activity, inhibitor	concentration not given	baseline: control	remaining activity	59%
COc1cc(Cl)c(C(=O)N[C@@H](CN[C@H]2CC[C@@H](N)CC2)Cc2ccc(C#N)cc2)cc1-c1ccc(CN[C@H](C)c2ccc(C)cc2)o1	Transient receptor potential cation channel subfamily M member 7 (TRPM7, Homo sapiens, UniProt Q96QT4)	enzyme activity, KinaseProfiler panel	1 µM	–	remaining activity	106%
COc1cc(/C=C/C(=O)CC(=O)/C=C/c2ccc(O)c(OC)c2)ccc1O	AMPK	–	1 µM	baseline: DMSO	remaining activity	93%
COc1cc(N2CCN(C)CC2)ccc1Nc1nc(N)n(C(=O)NCc2c(Cl)cccc2Cl)n1	Mitogen-activated protein kinase kinase kinase 2 (MAP3K2, Homo sapiens, UniProt Q9Y2U5)	enzyme activity	10 µM	baseline: control	remaining activity	16%
O=C(O)c1ccc(Nc2ncc3c(n2)-c2ccc(Cl)cc2C(c2c(F)cccc2F)=NC3)cc1	human PKBγ(h)	kinase activity	1 µM	–	remaining activity	110%
Nc1ncnc2occ(-c3ccc(NC(=O)Nc4cc(C(F)(F)F)ccc4F)cc3)c12	Transient receptor potential cation channel subfamily M member 6 (TRPM6, Homo sapiens, UniProt Q9BX84)	enzyme activity, inhibitor	20 µM	–	remaining activity	100%
Cc1cc(Nc2cc(N3CCN(C)CC3)nc(Sc3ccc(NC(=O)C4CC4)cc3)n2)[nH]n1	TGFBR1	kinase activity, KinaseProfiler	0.03 µM, species human	baseline: control	remaining activity	101%
C=CC(=O)N1CCC[C@@H](n2nc(-c3ccc(Oc4ccccc4)cc3)c3c(N)ncnc32)C1	PKN3	kinase activity, inhibitor, HotSpot radiometric	100 nM, with: ATP 10 µM	–	remaining activity	79.3 ± 0.3%
O=C(NC1CCC1)c1ccc2nc(-c3cccc(NS(=O)(=O)NCCN4CCCCC4)c3)cn2c1	TGFBR1	enzyme activity	10 µM	–	remaining activity	100%
Oc1cccc(-c2nc(N3CCOCC3)c3oc4ncccc4c3n2)c1	AMPK	enzyme activity	10 µM	–	remaining activity	99%
COc1cc(F)ccc1-c1ncnc(Nc2cccc(C[S@](C)(=N)=O)c2)n1	Dual specificity protein kinase CLK2 (CLK2, Homo sapiens, UniProt P49760)	kinase activity	10 µM, with: 10 µM ATP	–	remaining activity	75%
CCN1CCN(Cc2ccc(NC(=O)c3ccc(C)c(/C=C/c4cnc5[nH]ccc5c4OC)c3)cc2C(F)(F)F)CC1	Serine/threonine-protein kinase OSR1 (OXSR1, Homo sapiens, UniProt O95747)	kinase activity	1 µM	–	remaining activity	100%
NC/C(=C\F)COc1cccc(Cn2c(=S)[nH]c(=O)c3[nH]cnc32)c1	Eosinophil peroxidase (Homo sapiens, UniProt P11678)	H2O2 electrode	15 µM	baseline: control	remaining activity	59.7% and 28.5% and 35.8%
CNc1ncc2c(/C=C/C(=O)N3CCC(OC)CC3)nn(Cc3cccc(C(F)(F)F)c3)c2n1	MUSK	kinase activity, inhibitor	1 µM	baseline: untreated control	remaining activity	91%
COc1ccc(F)cc1C(=O)NCc1ccc(-c2nn([C@@H](C)C(F)(F)F)c(N)c2C(N)=O)cc1	PKN3	kinase activity, inhibitor, HotSpot radiometric	1000 nM, with: ATP at Km	–	remaining activity	98.2 ± 1%
O=C1NC(=O)/C(=C/c2ccc(-c3ccc(F)cc3O)o2)S1	Dual specificity tyrosine-phosphorylation-regulated kinase 3 (DYRK3, Homo sapiens, UniProt O43781)	enzyme activity	10 µM	–	remaining activity	18%
C=CC(=O)N1CCC[C@@H](n2nc(-c3ccc(Oc4ccccc4)cc3)c3c(N)ncnc32)C1	MUSK	–	1 µM	–	remaining activity	103%
CNC(=O)[C@@H](NC(=O)[C@H](CC(C)C)[C@H](O)C(=O)NO)C(C)(C)C	THP-1	pyroptotic LDH release	2 µM, 40 min, with: LPS then nigericin	–	inhibition	-16.7%
COc1cc(-c2cncc3c2CN(C)Cc2cc(N4CCNCC4)ccc2-3)cc(OC)c1OC	ZAP70	kinase activity	1 µM, human enzyme, with: ATP 10 µM	baseline: DMSO control	remaining activity	108%
C=CC(=O)N1CCC([C@@H]2CCNc3c(C(N)=O)c(-c4ccc(Oc5ccccc5)cc4)nn32)CC1	PKN3	kinase activity, inhibitor, HotSpot radiometric	100 nM, with: ATP 10 µM	–	remaining activity	88 ± 1.3%
CC(C)C(=O)Nc1n[nH]c2cc(-c3cccc(NS(=O)(=O)C4CC4)c3)ccc12	Phosphatidylinositol 4-phosphate 5-kinase type-1 gamma (PIP5K1C, Homo sapiens, UniProt O60331)	ADP-Glo	370 nM	baseline: DMSO	remaining activity	92.8%

Some of these lines once more:
SMILES	target or system	assay	setting	how to read	endpoint	result
CNc1ncc2c(/C=C/C(=O)N3CCC(OC)CC3)nn(Cc3cccc(C(F)(F)F)c3)c2n1	MUSK	kinase activity, inhibitor	1 µM	baseline: untreated control	remaining activity	91%
COc1cc(Nc2ncc3c(n2)-c2ccc(Cl)cc2C(c2c(F)cccc2OC)=NC3)ccc1C(=O)O	ROCK1	kinase activity	1 µM	–	remaining activity	97%
O=C(O)c1ccc(Nc2ncc3c(n2)-c2ccc(Cl)cc2C(c2c(F)cccc2F)=NC3)cc1	human PKBγ(h)	kinase activity	1 µM	–	remaining activity	110%
